Published values from different studies.
Numbers after ± are the reported error.

SMILES | cell line | assay | conditions | IC50
CCCC[C@@H]1NC(=O)CN(S(C)(=O)=O)CCNC(=O)[C@H](CCCCN)NC(=O)[C@H](CC(C)C)NC(=O)[C@H](CCCCN)NC(=O)[C@H](CC(C)C)NC(=O)[C@H](CCCCN)NC(=O)COC[C@H]2CCCN2C(=O)[C@H](Cc2c[nH]c3ccccc23)NC(=O)[C@H](C)NC(=O)[C@H](Cc2ccccc2)NC(=O)[C@H](C(C)C)NC1=O | NCI-H929 | viability, TO-PRO-3 staining, flow cytometry |  | 8.6 µM
Cc1ccc2oc(-c3c4c(N)n[nH]c(=O)c4nn3-c3ccc(NC(=O)/C=C/CN(C)C)cc3)c(C)c2c1 | Ba/F3 TEL-FGFR4 | cell proliferation |  | < 0.001 µM
CCCc1nc2ccccn2c1Nc1ccc(C(=O)NO)cc1 | CAL-27 | HDAC activity, inhibitor, whole-cell |  | 27.6 µM
NC1=N[N+](=Cc2c3ccccc3cc3ccccc23)[Ga-3]23([S]1)([S]C(N)=N[N+]2=Cc1c2ccccc2cc2ccccc12)[S]C(N)=N[N+]3=Cc1c2ccccc2cc2ccccc12 | Caco-2 |  | 24 h | 16.5 ± 2.2 µM
COc1cccc2cc(C(=O)NNC(N)=S)c(=O)oc12 | EA.hy 926 | cell growth or viability, SRB | 72 h | 25.8 µM
CC(C)Cc1ccc(C(C)C(=O)N/N=C/c2ccc(OCC(=O)N/N=C/c3c(O)ccc4ccccc34)cc2)cc1 (stereo not drawn) | U87 MG | cytotoxicity, MTT |  | 52.81 ± 0.06 µM
CC(C)C[C@@H]1NC(=O)[C@H](CCCCN)NC(=O)CN(S(C)(=O)=O)CCNC(=O)[C@H](Cc2c[nH]c3ccccc23)NC(=O)[C@H](CO)NC(=O)[C@H](C(C)C)NC(=O)[C@H](C(C)C)NC(=O)[C@H](C)NC(=O)CN(S(C)(=O)=O)CCNC(=O)[C@H](CCCCN)NC(=O)[C@H](CC(C)C)NC(=O)[C@H](CCCCN)NC1=O | NCI-H929 | viability, TO-PRO-3 staining, flow cytometry |  | 31.1 µM
O=C(/C=C/c1ccccc1)c1ccc(O)cc1 | human cells | NF-κB reporter gene, inhibitor | together with: TNF-alpha | 28.2 µM
C[C@]12CC/C(=N\O)C=C1CCC1C2CC[C@]2(C)/C(=C/c3ccccn3)CCC12 (stereo partly drawn) | CEM | cytotoxicity, alamarBlue | 72 h | > 50 µM
C=CCc1cc(OC)c(OC(C)=O)c(OC)c1 | HMEC | MTT | 24 h | > 50 µM
O=C(/C=C/c1ccc(O)cc1)c1ccc(O)cc1O | human cells | NF-κB reporter gene, inhibitor | together with: TNF-alpha | 32.4 µM
CC1(C)CCCC(C)(C2CCC3(C)C2C(O)CC2C4(C)CCC(OC(=O)c5cn(-c6ccc(Cl)cc6)nn5)C(C)(C)C4C(OC(=O)c4cn(-c5ccc(Cl)cc5)nn4)CC23C)O1 (stereo not drawn) | Hep3B | HRE reporter gene, inhibitor | 24 h, hypoxia | > 30 µM
C=C1C(=O)OC2C1CCC1(C)CC1CCC1(C)OC21 (stereo not drawn) | B117H murine AML, cytarabine-resistant | cell growth, inhibitor |  | 6.4 ± 2.1 µM
COc1ccc2nc(NC(=O)c3ccc(C(N)c4ccccc4)cc3)sc2c1 (stereo not drawn) | NSCLC cell lines | cell viability | eight other cell lines | > 10 µM
CC1(C)CCCC(C)(C2CCC3(C)C2C(O)CC2C4(C)CCC(O)C(C)(C)C4C(OC(=O)c4cn(-c5ccccc5)nn4)CC23C)O1 (stereo not drawn) | Hep3B | HRE reporter gene, inhibitor | 24 h, hypoxia | > 30 µM
CCC(C)C1OC(=O)C(C)(C)C(=O)C(Cc2ccccc2)OC(=O)C(C(C)C)OC(=O)C(NC(=O)c2cccc(O)c2)C(C)OC1=O (stereo not drawn) | PC-9/GR gefitinib-resistant | cell viability, CCK-8 | 72 h | 9.13 ± 0.189 µM
O=[N+]([O-])c1ccc(NC2=N[N+](=Cc3cccs3)[Pt-]([Cl])([Cl])[S]2)cc1 | MDCK | cell proliferation |  | > 100 µM
C=C(C)[C@@H]1CC[C@]2(C(=O)O)CC[C@]3(C)[C@H](CC[C@@H]4[C@@]5(C)CC[C@H](O[C@@H]6O[C@@H](C)[C@H](O)[C@@H](O)[C@H]6O)C(C)(C)[C@@H]5CC[C@]43C)[C@@H]12 | DLD-1 | cell growth or viability, fluorescence | 48 h | 2.5 µM

SMILES | cell line | assay | conditions | IC50
O=C(O)Cc1ccccc1Nc1c(Cl)cccc1Cl.O=C(O)Cc1ccccc1Nc1c(Cl)cccc1Cl.c1cnc2c(c1)ccc1cccnc12.c1cnc2c(c1)ccc1cccnc12 | CAL-27 | cell viability, MTT | 48 h | 1.69 ± 0.026 µM
Oc1ccc(-c2csc(Cc3ccccc3)n2)c(O)c1 | HPNE | cell growth or viability, resazurin | 72 h | 15 µM
CC1CCC(C(C)C)C(OC(=O)Cn2c(-c3ccc(OC(=O)CCCCC4SCC5NC(=O)NC54)cc3)[n+](C)c3ccccc32)C1 (stereo not drawn) | HTS | cell growth or viability, ATP luminescence | 96 h | 1.53 µM
C[N+]1(C)CC[NH2+][Pt-2]1([OH])([Cl])([Cl])[O]C(=O)CCC(=O)OCCO | P31 | cell viability, EZ4U | 96 h | 124 ± 4 µM
COc1ccc(N2C(=O)C=CC2=O)cc1 | HT-22 | cell growth or viability, MTT | 24 h | 12.5 µg/mL
CSC(=S)N/N=C(\C)c1ccc(Nc2nnc(-c3ccc(Cl)cc3)c3ccccc23)cc1 | HepG2 | cell growth or viability, MTT |  | 0.2 µM
COc1cc(CN2CCN(c3cccc(Cl)c3)CC2)c2cc3[n+](cc2c1O)CCc1cc2c(cc1-3)OCO2 | Ca-Ski | cell growth or viability, SRB | 48 h | 4.92 µg/mL
COc1ccc(OC)c(C(c2c[nH]c3ccccc23)c2c[nH]c3ccccc23)c1 | B16 | cell growth or viability, MTT | 24 h | 8.17 µM
Cn1cc(-c2cc(N3CCCCS3(=O)=O)ccc2N[C@H]2CC[C@H](C)CC2)c2cc[nH]c2c1=O (stereo in doubt) | Light2 cells transfected with GLI2 | GLI-luciferase reporter, inhibitor, measured: GLI2 |  | 0.00043 µM
CC[C@H](C)[C@H](N)C(=O)Nc1ccc2nc(Cc3c[nH]c4ccccc34)[nH]c2c1 | NCI-H358 | cell growth or viability, ATP luminescence | 72 h | 20.2 µM
CN1CCCNC(=O)c2cccc(c2)C(=O)NCCCN(C)CCCNc2cccc3c2C(=O)c2cccc(c2C3=O)NCCC1 | normal cells, mouse bone marrow cells | cell proliferation | general range | > 6 µM
Cc1c(OCc2ccccc2)c(=O)ccn1CCCOC(=O)c1cccc(Cl)c1 | fibroblast cells | cell viability, MTT | 48 h | 59 µg/mL
CC(C)[C@H](NC(=O)OC(C)(C)C)C(=O)OC1CCC2(C)C(C(O)CC3(C)C2CC(O)C2C(C4(C)CCCC(C)(C)O4)CCC23C)C1(C)C (stereo partly drawn) | Hep3B | HRE reporter gene, inhibitor | 24 h, hypoxia | 1.95 ± 0.15 µM
[Cl][Pt-]1([Cl])[S]C(Nc2ccccc2)=N[N+]1=Cc1ccc(-c2ccccc2)s1 | MDCK | cell proliferation |  | 60.7 µM
CC(C)(C)OC(=O)NCC(=O)OC1CC2(C)C(CC(O)C3C(C4(C)CCCC(C)(C)O4)CCC32C)C2(C)CCC(O)C(C)(C)C12 (stereo not drawn) | Hep3B | HRE reporter gene, inhibitor | 24 h, hypoxia | 2.04 ± 0.23 µM
CC1=C2[O][Ru-]([Cl])[O+]=C2C=CN1CCCCCCN1C=CC2=[O+][Ru-]([Cl])[O]C2=C1C.Cc1ccc(C(C)C)cc1.Cc1ccc(C(C)C)cc1 | RT-4 | cell growth or viability, crystal violet | 96 h | > 20 µM
COc1cc(CN2CCN(c3ccc(C)cc3)CC2)c2cc3[n+](cc2c1O)CCc1cc2c(cc1-3)OCO2 | Ca-Ski | cell growth or viability, SRB | 48 h | 5 µg/mL
CC(=O)Nc1ccc(OC(=O)CCC(=O)[O][Pt-2]23([O]C(=O)CCC(=O)Oc4ccc(NC(C)=O)cc4)([NH2+][C@@H]4CCCC[C@H]4[NH2+]2)[O]C(=O)C(=O)[O]3)cc1 | Renca | cell growth or viability, MTT | 48 h | 13.1 µM

Some of these lines once more:
SMILES | cell line | assay | conditions | IC50
CC(C)[C@H](NC(=O)OC(C)(C)C)C(=O)OC1CCC2(C)C(C(O)CC3(C)C2CC(O)C2C(C4(C)CCCC(C)(C)O4)CCC23C)C1(C)C (stereo partly drawn) | Hep3B | HRE reporter gene, inhibitor | 24 h, hypoxia | 1.95 ± 0.15 µM
NC1=N[N+](=Cc2c3ccccc3cc3ccccc23)[Ga-3]23([S]1)([S]C(N)=N[N+]2=Cc1c2ccccc2cc2ccccc12)[S]C(N)=N[N+]3=Cc1c2ccccc2cc2ccccc12 | Caco-2 |  | 24 h | 16.5 ± 2.2 µM
C[N+]1(C)CC[NH2+][Pt-2]1([OH])([Cl])([Cl])[O]C(=O)CCC(=O)OCCO | P31 | cell viability, EZ4U | 96 h | 124 ± 4 µM
COc1cccc2cc(C(=O)NNC(N)=S)c(=O)oc12 | EA.hy 926 | cell growth or viability, SRB | 72 h | 25.8 µM
CC1(C)CCCC(C)(C2CCC3(C)C2C(O)CC2C4(C)CCC(OC(=O)c5cn(-c6ccc(Cl)cc6)nn5)C(C)(C)C4C(OC(=O)c4cn(-c5ccc(Cl)cc5)nn4)CC23C)O1 (stereo not drawn) | Hep3B | HRE reporter gene, inhibitor | 24 h, hypoxia | > 30 µM
